Experimental data from different studies.
Lines come from different studies, so protocols differ. ± marks the error that the study gave. In brackets after ≈: the same amount, converted by molar mass.
Organism: Pseudomonas aeruginosa

Structure (SMILES) | assay | system | conditions | scale | measurement | value
CC(C)[C@H]1NC(=O)[C@H](Cc2ccccc2)NC(=O)[C@@H](C(C)C)NC(=O)[C@@H](C)NC(=O)[C@H](C)NC(=O)[C@@H](Cc2c(-c3ccc(-c4ccc5ccccc5c4)cc3)[nH]c3ccccc23)NC(=O)[C@@H](C)NC1=O | broth dilution | – | – | – | MIC90 | > 50 µM
CC[C@H](C)[C@H](NC(=O)[C@H](CCCNC(=N)N)NC(=O)[C@H](CO)NC(=O)[C@H](Cc1ccc(O)cc1)NC(=O)[C@@H](NC(=O)[C@@H](NC(=O)[C@H](C)NC(=O)CNC(=O)[C@H](CCCCN)NC(=O)[C@H](CCCCN)NC(=O)CCNC(=O)CCCCCNC(=O)[C@H](CCCNC(=N)N)NC(=O)CCCCCNC(=O)[C@H](CCCNC(=N)N)NC(=O)[C@H](CCCNC(=N)N)NC(=O)CCCCCNC(=O)[C@H](CCCNC(=N)N)NC(=O)[C@H](CCCNC(=N)N)NC(=O)CCCCCNC(=O)[C@H](CCCNC(=N)N)NC(=O)[C@H](CCCNC(=N)N)NC(=O)CCCCCNC(=O)[C@@H](N)CCCNC(=N)N)C(C)C)[C@@H](C)O)C(=O)N[C@@H](CO)C(=O)NCC(=O)N[C@@H](CCC(N)=O)C(=O)N[C@@H](Cc1ccc(O)cc1)C(=O)N[C@@H](CCCCN)C(=O)O | biofilm formation, crystal violet | ATCC 27853 | below 48 µM | – | inhibition | < 50%
CC(C)[C@H]1NC(=O)[C@H](Cc2ccc(O)cc2)NC(=O)[C@@H](C(C)C)NC(=O)[C@@H](C)NC(=O)[C@H](CO)NC(=O)[C@@H](Cc2c(-c3ccc(-c4ccc5ccccc5c4)cc3)[nH]c3ccccc23)NC(=O)[C@@H](CO)NC1=O | broth dilution | – | – | – | MIC90 | > 50 µM
CCC(C)CCC(=O)N[C@H](CCN)C(=O)N[C@@H](CCN)C(=O)N[C@@H](CCN)C(=O)N[C@@H](CC(C)C)C(=O)N[C@H](Cc1ccccc1)C(=O)N[C@@H](CCN)C(=O)N[C@@H](CCN)C(=O)N[C@@H](CC(C)C)C(N)=O (stereo partly shown) | – | PAO1 | 24 h, 37 °C | – | MBC | > 128 µM
CN[C@H](CC(C)C)C(=O)N[C@H]1C(=O)N[C@@H](CC(N)=O)C(=O)N[C@H]2C(=O)N[C@H]3C(=O)N[C@H](C(=O)N[C@H](C(=O)NCC(N)=O)c4cc(O)cc(O)c4-c4cc3ccc4O)[C@H](O)c3ccc(c(Cl)c3)Oc3cc2cc(c3O[C@@H]2O[C@H](CO)[C@@H](O)[C@H](O)[C@H]2O[C@H]2C[C@](C)(NCc3ccc(OCc4cn(CC(=O)N[C@H](C(=O)N[C@@H](CCN)C(=O)N[C@H]5CCNC(=O)[C@H]([C@@H](C)O)NC(=O)[C@H](CCN)NC(=O)[C@H](CCN)NC(=O)[C@H](CC(C)C)NC(=O)[C@@H](CC(C)C)NC(=O)[C@H](CCN)NC5=O)[C@@H](C)O)nn4)c(OC)c3)[C@H](O)[C@H](C)O2)Oc2ccc(cc2Cl)[C@H]1O | broth microdilution | ATCC 25922, cation-adjusted Mueller-Hinton broth | – | – | MIC | 6 µM (≈ 16.2 µg/mL)
Cc1nc2ccc(N)cc2s1 | pyocyanin production | PA14-lux | 200 µM, 18 h | relative to: DMSO vehicle | inhibition | 6.05%
CC(C)[C@H]1NC(=O)[C@H](Cc2ccccc2)NC(=O)[C@@H](C(C)C)NC(=O)[C@@H](C)NC(=O)[C@H](CO)NC(=O)[C@@H](Cc2c(-c3ccc(-c4cccc5ccccc45)cc3)[nH]c3ccccc23)NC(=O)[C@@H](CO)NC1=O | broth dilution | – | – | – | MIC90 | > 50 µM
O=C(O)CN(CC(=O)O)CP(=O)(O)O | – | IMP-37 and IMP-13 producer | 32 µg/mL, added: meropenem | – | meropenem MIC | 16 µg/mL
CCCC(=O)C#Cc1ccc(F)c(F)c1 | – | – | 10 µM, 24 h | relative to: untreated | exoprotease production | 89%
Nc1nc2ccc(Oc3ccc4nc(N)sc4c3)cc2s1 | swarming area, modified FAB agar | PA14-lux | 200 µM, 24 h | relative to: DMSO vehicle | inhibition | > 90%
CN[C@H](CC(C)C)C(=O)N[C@H]1C(=O)N[C@@H](CC(N)=O)C(=O)N[C@H]2C(=O)N[C@H]3C(=O)N[C@H](C(=O)N[C@H](C(=O)O)c4cc(O)cc(O)c4-c4cc3ccc4O)[C@H](O)c3ccc(c(Cl)c3)Oc3cc2cc(c3O[C@@H]2O[C@H](CO)[C@@H](O)[C@H](O)[C@H]2O[C@H]2C[C@](C)(NCc3ccc(OCc4cn(CCCCC(=O)N[C@H](C(=O)N[C@@H](CCN)C(=O)N[C@H]5CCNC(=O)[C@H]([C@@H](C)O)NC(=O)[C@H](CCN)NC(=O)[C@H](CCN)NC(=O)[C@H](CC(C)C)NC(=O)[C@@H](CC(C)C)NC(=O)[C@H](CCN)NC5=O)[C@@H](C)O)nn4)c(OC)c3)[C@H](O)[C@H](C)O2)Oc2ccc(cc2Cl)[C@H]1O | broth microdilution | ATCC 17978, cation-adjusted Mueller-Hinton broth | – | – | MIC | 12 µM (≈ 32.1 µg/mL)
CCCCCCCCCC(=O)OCCSCCC(=O)N[C@H](CCN)C(=O)N[C@@H](CCN)C(=O)N[C@@H](CCN)C(=O)N[C@@H](CC(C)C)C(=O)N[C@H](Cc1ccccc1)C(=O)N[C@@H](CCN)C(=O)N[C@@H](CCN)C(=O)N[C@@H](CC(C)C)C(N)=O | – | PAO1 | 24 h, 37 °C | – | MBC | 16 µM
CC[C@H](C)[C@H](NC(=O)[C@H](CCCCN)NC(=O)[C@H](CCCCN)NC(=O)[C@H](Cc1ccccc1)NC(=O)[C@H](Cc1ccccc1)NC(=O)[C@H](CCCCN)NC(=O)[C@H](CCCCN)NC(=O)[C@H](Cc1ccccc1)NC(=O)[C@H](CCCNC(=N)N)NC(=O)[C@@H](N)CCCCN)C(=O)N[C@@H](CCCCN)C(=O)N[C@@H](CCCCN)C(=O)N[C@@H](CO)C(=O)N[C@H](C(=O)N[C@@H](CCCCN)C(=O)N[C@@H](CCCCN)C(=O)N[C@@H](CCCNC(=N)N)C(=O)N[C@H](C(=O)N[C@@H](CCCCN)C(=O)N[C@@H](CCCCN)C(=O)N[C@@H](CC(C)C)C(=O)N[C@@H](Cc1ccccc1)C(=O)N[C@@H](CCCCN)C(=O)N[C@@H](CCCCN)C(=O)N1CCC[C@H]1C(=O)N[C@@H](CCCNC(=N)N)C(=O)N[C@H](C(=O)N[C@H](C(=O)N1CCC[C@H]1C(=O)N[C@H](C(=O)N[C@@H](CO)C(=O)N[C@H](C(=O)N1CCC[C@H]1C(=O)N[C@@H](Cc1ccccc1)C(=O)O)[C@@H](C)CC)[C@@H](C)CC)[C@@H](C)CC)C(C)C)C(C)C)C(C)C | – | P1 clinical isolate | 20 h | – | MBC | 16 µg/mL
CC(C)[C@H]1NC(=O)[C@H](Cc2ccccc2)NC(=O)[C@@H](C(C)C)NC(=O)[C@@H](C)NC(=O)[C@H](C)NC(=O)[C@@H](Cc2c(-c3ccc(-c4ccc(-c5ccccc5)cc4)cc3)[nH]c3ccccc23)NC(=O)[C@@H](CO)NC1=O | broth dilution | – | – | – | MIC90 | > 50 µM
CC(C)C[C@H](NC(=O)[C@H](Cc1ccccc1)NC(=O)[C@H](CCC(N)=O)NC(=O)[C@H](Cc1ccc(O)cc1)NC(=O)[C@H](CCCCN)NC(=O)[C@@H]1CCCN1C(=O)[C@H](CCCNC(=N)N)NC(=O)[C@H](CCC(N)=O)NC(=O)[C@H](Cc1c[nH]c2ccccc12)NC(=O)[C@H](CS)NC(=O)[C@H](Cc1c[nH]c2ccccc12)NC(=O)[C@H](Cc1ccccc1)NC(=O)[C@H](CCCNC(=N)N)NC(=O)[C@H](CCCCN)NC(=O)[C@H](CCCCN)NC(=O)[C@H](CCCCN)NC(=O)[C@@H](NC(=O)[C@@H](NC(=O)[C@H](CC(C)C)NC(=O)[C@@H](N)CO)C(C)C)[C@@H](C)O)C(=O)O | – | – | – | – | MBC/MIC ratio | 0.0625
Cn1cc(S(=O)(=O)c2ccc3nc(N)sc3c2)cn1 | pyocyanin production | PA14-lux | 200 µM, 18 h | relative to: DMSO vehicle | inhibition | 5.51%
C#CCOc1ccc(CN[C@@]2(C)C[C@H](O[C@H]3[C@H](Oc4c5cc6cc4Oc4ccc(cc4Cl)[C@@H](O)[C@@H](NC(=O)[C@@H](CC(C)C)NC)C(=O)N[C@@H](CC(N)=O)C(=O)N[C@H]6C(=O)N[C@H]4C(=O)N[C@H](C(=O)N[C@H](C(=O)N[C@@H](CCCNC(=N)N)C(N)=O)c6cc(O)cc(O)c6-c6cc4ccc6O)[C@H](O)c4ccc(c(Cl)c4)O5)O[C@H](CO)[C@@H](O)[C@@H]3O)O[C@@H](C)[C@H]2O)cc1OC | broth microdilution | ATCC 13883, cation-adjusted Mueller-Hinton broth | – | – | MIC | 72 µM (≈ 128 µg/mL)
Nc1nc2ccc(Oc3ccncc3)cc2s1 | pyocyanin production | PA14-lux | 200 µM, 18 h | relative to: DMSO vehicle | inhibition | 26%
O=c1n(CCNCCOS(=O)(=O)c2ccccc2)c(=O)n(S(=O)(=O)c2ccccc2)c(=O)n1S(=O)(=O)c1ccccc1 | broth microdilution | – | – | – | MLC | 4 ± 1 µg/mL
Nc1nc2ccc(S(=O)(=O)c3cn[nH]c3)cc2s1 | swarming area | PA14-lux | 200 µM, 24 h | relative to: DMSO | swarming inhibition | 25.7%
CN[C@H](CC(C)C)C(=O)N[C@H]1C(=O)N[C@@H](CC(N)=O)C(=O)N[C@H]2C(=O)N[C@H]3C(=O)N[C@H](C(=O)N[C@H](C(=O)NCc4cn(CCCCC(=O)N[C@H](C(=O)N[C@@H](CCN)C(=O)N[C@H]5CCNC(=O)[C@H]([C@@H](C)O)NC(=O)[C@H](CCN)NC(=O)[C@H](CCN)NC(=O)[C@H](CC(C)C)NC(=O)[C@@H](CC(C)C)NC(=O)[C@H](CCN)NC5=O)[C@@H](C)O)nn4)c4cc(O)cc(O)c4-c4cc3ccc4O)[C@H](O)c3ccc(c(Cl)c3)Oc3cc2cc(c3O[C@@H]2O[C@H](CO)[C@@H](O)[C@H](O)[C@H]2O[C@H]2C[C@](C)(N)[C@H](O)[C@H](C)O2)Oc2ccc(cc2Cl)[C@H]1O | broth microdilution | ATCC 13883, cation-adjusted Mueller-Hinton broth | – | – | MIC | 13 µM (≈ 33 µg/mL)
Nc1nc2ccc(Oc3cc[nH]c(=O)c3)cc2s1 | swarming area | PA14-lux | 200 µM, 24 h | relative to: DMSO | swarming inhibition | 82.1%
CC(C)C[C@H](NC(=O)[C@H](CC(C)C)NC(=O)[C@H](CCCCN)NC(=O)[C@H](Cc1ccccc1)NC(=O)[C@@H](NC(=O)[C@H](CCCNC(=N)N)NC(=O)[C@@H](N)CCCCN)C(C)C)C(=O)N[C@@H](CCCCN)C(=O)N[C@@H](CCCNC(=N)N)C(=O)N[C@@H](Cc1ccc(O)cc1)C(=O)N[C@@H](Cc1c[nH]c2ccccc12)C(=O)N[C@@H](CCCNC(=N)N)C(=O)N[C@@H](CCC(N)=O)C(=O)N[C@@H](CC(C)C)C(=O)N[C@@H](CCCCN)C(=O)N[C@@H](CCCCN)C(=O)N1CCC[C@H]1C(=O)N[C@H](C(=O)N[C@@H](CCCNC(=N)N)C(=O)NCCOCCOCC(=O)O)C(C)C | – | ATCC 10145-GFP | sub-MIC, 24 h | relative to: untreated | hemolytic activity | decreased
NCc1ccc(S(=O)(=O)c2ccc3nc(N)sc3c2)cn1 | swarming area, modified FAB agar | PA14-lux | 200 µM, 24 h | relative to: DMSO vehicle | inhibition | 92%
CC(C)C[C@H](NC(=O)[C@H](CCN)NC(=O)[C@H](CCN)NC(=O)[C@@H](Cc1ccccc1)NC(=O)[C@H](CC(C)C)NC(=O)[C@H](CCN)NC(=O)[C@H](CCN)NC(=O)[C@@H](CCN)NC(=O)[C@@H](N)CS)C(N)=O | – | PAO1 | 24 h, 37 °C | – | MBC | 128 µM

Repeated from above:
Structure (SMILES) | assay | system | conditions | scale | measurement | value
CN[C@H](CC(C)C)C(=O)N[C@H]1C(=O)N[C@@H](CC(N)=O)C(=O)N[C@H]2C(=O)N[C@H]3C(=O)N[C@H](C(=O)N[C@H](C(=O)NCc4cn(CCCCC(=O)N[C@H](C(=O)N[C@@H](CCN)C(=O)N[C@H]5CCNC(=O)[C@H]([C@@H](C)O)NC(=O)[C@H](CCN)NC(=O)[C@H](CCN)NC(=O)[C@H](CC(C)C)NC(=O)[C@@H](CC(C)C)NC(=O)[C@H](CCN)NC5=O)[C@@H](C)O)nn4)c4cc(O)cc(O)c4-c4cc3ccc4O)[C@H](O)c3ccc(c(Cl)c3)Oc3cc2cc(c3O[C@@H]2O[C@H](CO)[C@@H](O)[C@H](O)[C@H]2O[C@H]2C[C@](C)(N)[C@H](O)[C@H](C)O2)Oc2ccc(cc2Cl)[C@H]1O | broth microdilution | ATCC 13883, cation-adjusted Mueller-Hinton broth | – | – | MIC | 13 µM (≈ 33 µg/mL)
CCCC(=O)C#Cc1ccc(F)c(F)c1 | – | – | 10 µM, 24 h | relative to: untreated | exoprotease production | 89%
CC(C)[C@H]1NC(=O)[C@H](Cc2ccc(O)cc2)NC(=O)[C@@H](C(C)C)NC(=O)[C@@H](C)NC(=O)[C@H](CO)NC(=O)[C@@H](Cc2c(-c3ccc(-c4ccc5ccccc5c4)cc3)[nH]c3ccccc23)NC(=O)[C@@H](CO)NC1=O | broth dilution | – | – | – | MIC90 | > 50 µM
